Assay results collected from several papers.
Every numbered part comes from another study and shows a few of its results, in no order. Values joined by “and” are separate records of one study, mostly repeats; a detail may differ.

Block 1 — cell line: HCC1569; observed: CDK1 Thr14 phosphorylation; method: in-cell western; concentration: 333.33 nM; reading: lower = stronger inhibition
| SMILES | phospho-CDK1 (Thr14) level |
| --- | --- |
| Cc1ccc(O)c(C)c1-c1cnc2[nH]c(-c3cnc(N4CCC(CN5CCN(c6ccc(NC7CCC(=O)NC7=O)cc6F)CC5)CC4)nc3)cc2c1C#N (centres unmarked) | 88.6 a.u. and 97.3 a.u. |
| Cc1ccc(O)c(C)c1-c1cnc2[nH]c(-c3cnc(N4CCC(CN5CCN(c6ccc7c(c6)C(=O)N(C6CCC(=O)NC6=O)C7=O)CC5)CC4)nc3)cc2c1C#N (centres unmarked) | 98 a.u. and 95.4 a.u. |
| Cc1ccc(O)c(C)c1-c1cnc2[nH]c(-c3cnc(N4CC5(CC(CN6CCN(c7ccc(NC8CCC(=O)NC8=O)cc7F)CC6)C5)C4)nc3)cc2c1C#N (centres unmarked) | 115 a.u. and 123 a.u. |
| Cc1ccc(O)c(C)c1-c1cnc2[nH]c(-c3cnc(N4CCC5(CC4)CC(N4CCN(c6ccc(NC7CCC(=O)NC7=O)cc6F)CC4)CO5)nc3)cc2c1C#N (centres unmarked) | 115 a.u. |
| Cc1ccc(O)c(C)c1-c1cnc2[nH]c(-c3cnc(N4CCC(CN5CCN(c6cc7c(cc6F)n(C6CCC(=O)NC6=O)c(=O)n7C)CC5)CC4)nc3)cc2c1C#N (centres unmarked) | 81.3 a.u. and 82 a.u. |

Block 2 — observed: thermal unfolding; method: differential scanning fluorimetry; concentration: 5.5 µM; reading: higher = more unfolded
Structure (SMILES): C[C@@H]1CN(c2ccc(-c3cc(C(=O)NCCOCCOCCOCCOCCNC(=O)/C=C/c4[nH]cc(C(=O)N[C@@H](CC(N)=O)c5ccc(F)c(Cl)c5)c4-c4ccc(Cl)cc4F)ccc3F)cc2NC(=O)c2c[nH]c(=O)cc2C(F)(F)F)C[C@H](C)N1C
WDR5: WD repeat-containing protein 5 (WDR5, Homo sapiens, UniProt P61964)
DCAF1: DDB1- and CUL4-associated factor 1 (DCAF1, Homo sapiens, UniProt Q9Y4B6)
Chain of UniProt Q9Y4B6 (whole entry, looked up): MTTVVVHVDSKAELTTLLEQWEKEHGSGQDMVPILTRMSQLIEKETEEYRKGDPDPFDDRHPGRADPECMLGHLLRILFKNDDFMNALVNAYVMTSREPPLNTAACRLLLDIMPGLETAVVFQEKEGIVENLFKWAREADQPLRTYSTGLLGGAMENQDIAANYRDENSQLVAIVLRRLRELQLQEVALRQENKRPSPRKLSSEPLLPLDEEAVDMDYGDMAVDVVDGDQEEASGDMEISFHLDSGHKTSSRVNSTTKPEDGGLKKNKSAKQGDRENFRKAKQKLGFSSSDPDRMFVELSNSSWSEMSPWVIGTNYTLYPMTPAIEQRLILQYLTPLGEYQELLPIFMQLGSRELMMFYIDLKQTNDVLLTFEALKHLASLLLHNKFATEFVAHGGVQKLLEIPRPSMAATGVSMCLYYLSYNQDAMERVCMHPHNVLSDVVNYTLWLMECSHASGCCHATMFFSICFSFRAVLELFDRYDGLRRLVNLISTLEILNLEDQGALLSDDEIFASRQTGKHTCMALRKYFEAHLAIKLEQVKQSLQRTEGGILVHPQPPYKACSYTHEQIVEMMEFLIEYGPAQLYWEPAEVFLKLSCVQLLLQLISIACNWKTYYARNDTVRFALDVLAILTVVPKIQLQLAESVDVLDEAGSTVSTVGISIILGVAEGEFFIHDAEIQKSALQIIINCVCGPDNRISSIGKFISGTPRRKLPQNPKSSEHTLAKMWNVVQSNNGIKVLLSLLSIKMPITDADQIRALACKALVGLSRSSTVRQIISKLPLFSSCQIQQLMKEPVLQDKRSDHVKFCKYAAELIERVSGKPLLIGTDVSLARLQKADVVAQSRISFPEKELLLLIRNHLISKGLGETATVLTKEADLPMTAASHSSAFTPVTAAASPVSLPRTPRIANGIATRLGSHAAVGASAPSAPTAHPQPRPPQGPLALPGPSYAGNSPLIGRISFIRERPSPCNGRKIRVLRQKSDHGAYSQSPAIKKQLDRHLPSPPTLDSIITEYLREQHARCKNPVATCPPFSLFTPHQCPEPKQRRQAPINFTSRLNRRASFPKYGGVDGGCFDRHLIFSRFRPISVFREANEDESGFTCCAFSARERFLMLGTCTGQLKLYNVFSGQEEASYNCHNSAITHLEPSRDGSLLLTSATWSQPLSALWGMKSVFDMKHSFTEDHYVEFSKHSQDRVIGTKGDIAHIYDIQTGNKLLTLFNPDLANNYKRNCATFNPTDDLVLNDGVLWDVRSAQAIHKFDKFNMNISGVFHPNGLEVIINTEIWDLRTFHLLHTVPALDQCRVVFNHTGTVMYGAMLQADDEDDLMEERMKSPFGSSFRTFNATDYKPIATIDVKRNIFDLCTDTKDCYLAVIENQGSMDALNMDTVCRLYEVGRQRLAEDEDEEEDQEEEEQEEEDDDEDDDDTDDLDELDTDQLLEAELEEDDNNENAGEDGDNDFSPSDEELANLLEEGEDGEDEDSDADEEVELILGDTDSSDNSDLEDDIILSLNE
| target | temperature | SYPRO Orange fluorescence |
| --- | --- | --- |
| WDR5 | 70.41 °C | 16700 a.u. |
| DCAF1 | 81.41 °C | 43600 a.u. |
| WDR5 | 27.2 °C | 13000 a.u. |
| DCAF1 | 33.8 °C | 9870 a.u. |
| WDR5 | 83.41 °C | 49400 a.u. |
| WDR5 | 52.2 °C | 16800 a.u. |
| WDR5 | 89.01 °C | 52200 a.u. |
| WDR5 | 90.01 °C | 51100 a.u. |
| WDR5 | 47.2 °C | 15700 a.u. |
| WDR5 | 44.4 °C | 15200 a.u. |
| WDR5 | 76.81 °C | 30600 a.u. |

Block 3 — time: 6 days
SMILES: Cc1ncsc1-c1ccc(C(CO)NC(=O)C2CC(O)CN2C(=O)C(NC(=O)c2ccc(COc3c(-c4c(C)c(F)cc5[nH]ncc45)c(C4CC4)cc4c(N5CC6CC5CN6)nc(OC5CCOCC5)nc34)cc2)C(C)C)cc1 (centres unmarked)
| cell line | observed | method | concentration | viability |
| --- | --- | --- | --- | --- |
| ASPC1 | cell growth or viability | ATP luminescence | 10 nM | 80.6% and 88% and 94.2% and 86.4% and 87.5% and 80.1% |
| ASPC1 | cell growth or viability | ATP luminescence | 1 nM | 81% and 72.3% and 78.2% and 97% and 78.9% and 84.8% |
| AsPC-1 |  | CellTiter-Glo | 3 µM | 5.66% and 5.08% and 4.37% |
| AsPC-1 |  | CellTiter-Glo | 30 nM | 85.2% and 76.7% and 85% |
| ASPC1 | cell growth or viability | ATP luminescence | 0.1 µM | 77.7% and 43.2% and 44.6% and 61.4% and 42% and 80.1% |
| ASPC1 | cell growth or viability | ATP luminescence | 300 pM | 93.6% and 96.6% and 94.7% and 87.7% and 81.4% and 83.3% |

Mixed results
| Structure (SMILES) | matrix | time | quantity | value |
| --- | --- | --- | --- | --- |
| CC[C@@]1(c2cccc(C(F)(F)F)c2)C2=C(Nc3n[nH]cc31)[C@H](F)C(C)(C)CC2=O (single isomer, unassigned) | rat plasma | 4 h | fu | 0.0312 |
